Experimental data gathered from unrelated publications.
Parts stem from different laboratories: compare values within a part only. Changes are numbered by the printed parent chain.

Sample 1
Target: ABI1, truncated, D143A, DHFR fusion (Arabidopsis thaliana)
Technique: DHFR PCA, deep sequencing
Medium: yeast
Setting: methotrexate growth selection, single substitutions
With: (+)-ABA 1.4 µM
Relative to: wild-type fitted maximum
Reading: higher = stronger binding
Starting sequence: PYL1, truncated, DHFR fusion (Arabidopsis thaliana); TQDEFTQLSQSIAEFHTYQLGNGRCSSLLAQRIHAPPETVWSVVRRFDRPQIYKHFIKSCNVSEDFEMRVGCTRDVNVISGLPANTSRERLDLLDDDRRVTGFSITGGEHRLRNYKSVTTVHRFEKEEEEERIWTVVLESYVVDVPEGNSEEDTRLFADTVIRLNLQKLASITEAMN
| Substitution | relative binding score [%] |
| --- | --- |
| H55E | 46.5 |
| W41L | -6.02 |
| C72R | 5.63 |
| Q7Y | 63.1 |
| E67V | 63.7 |
| K126I | 60.7 |
| E14G | -1.48 |
| W41G | -7.63 |
| E147N | 34.1 |
| I162R | 17.8 |
| T173V | 45.1 |
| I105N | -17.7 |
| N85K | 82.4 |
| R98K | 63.3 |
| V121P | 5.01 |
| F66S | 29.5 |
| P146I | -0.619 |
| Q7M | 73.3 |

Sample 2
Cell line: yeast with cyclin B3-Cln2 chimera
Observed: cell growth
Action: binder
Technique: competitive growth deep sequencing
Form: peptide
Concentration: concentration not given
Setting: peptide tiling library
Reading: direction not given
| Sequence | growth enrichment score |
| --- | --- |
| SSEVARHLLFQSHM | -0.301 |
| ESSQLTVQAEFDMSAI | 0.185 |
| LRRQLSFSED | -0.904 |
| DTERAHSTLDEDLERW | 0.66 |
| EPRNLLSLFEDTLDPT | 0.319 |
| KRCATPVIIDEILPSK | 1.26 |
| AIRKMREDRWAVIAKM | -0.875 |
| ALTMEALEDPSPELME | 1.26 |
| VKRLNFRSEEME | 0.293 |
| IVLICAKRSLCAAFSV | -0.625 |
| PLRKAKRARLCSSSSS | 0.285 |
| RRVLCFDS | 0.148 |
| VLLKRLQDVVSERANH | -0.0577 |
| NARRSLNFGGSTGT | -0.349 |
| KPITLDTTDFQESFVT | 1.01 |
| IPDRSTKPVVFSPT | 0.369 |
| TARRIFQEPTEPKTKA | 0.0854 |
| RKLHFEDEVT | -0.107 |
| PARRRLRLSVDEVSSP | -0.294 |
| PAKRRLELGE | 0.362 |
| FREFEVEKQTAEETGL | 1.81 |

Sample 3
Target: OGT, full length, His-tagged (human)
Technique: phage display, sequencing
Medium: in vitro
Concentration: 1 µg OGT
Setting: single substitutions, 15-mer displayed peptide, unchanged parent 6.14
Relative to: input library
Reading: higher = stronger binding
Starting sequence: peptide; VAYPNSYMPKYQIST
| Substitution | fold enrichment |
| --- | --- |
| VAYPNSYMPKQQIST [Y11Q] | 1.27 fold |
| RAYPNSYMPKYQIST [V1R] | 4.22 fold |
| VAYPNSSMPKYQIST [Y7S] | 0.634 fold |
| VAYPNSYMPKHQIST [Y11H] | 0.632 fold |
| VAYPNSYMPKYQIAT [S14A] | 4.75 fold |
| VAYPNSYSPKYQIST [M8S] | 0.798 fold |
| VAYPNSYMPKYQIQT [S14Q] | 12.7 fold |
| VAYPYSYMPKYQIST [N5Y] | 6.26 fold |
| VAYPNSYMPKYQIFT [S14F] | 10.3 fold |
| VADPNSYMPKYQIST [Y3D] | 4.64 fold |
| EAYPNSYMPKYQIST [V1E] | 6.52 fold |
| VARPNSYMPKYQIST [Y3R] | 0.419 fold |
| VAYPNSYMMKYQIST [P9M] | 1.96 fold |
| VAYPNSYMPKYQISL [T15L] | 11.8 fold |
| VAYNNSYMPKYQIST [P4N] | 5.8 fold |
| VAYPNSYMPKYQISK [T15K] | 3.46 fold |
| VEYPNSYMPKYQIST [A2E] | 7.38 fold |

Sample 4
Target: Prothrombin, mature alpha-thrombin (F2, Homo sapiens, UniProt P00734)
Technique: aptamer microarray, sandwich
Form: DNA with 2'F-ANA
Medium: in vitro
Concentration: 200 nM
Setting: whole 15-mer aptamer, many near background
With: Cy3 exosite-II aptamer, 400 nM
Reading: higher = stronger binding
Sequence: GGTTGGTGTGGTTGG
| Modification | mean fluorescence intensity [a.u.] |
| --- | --- |
| 2'F-ANA at 2 4 5 9 12 13 15 | 79.7 |
| 2'F-ANA at 6 10 12 13 | 183 |
| 2'F-ANA at 1 2 4 8 9 15 | 196 |
| 2'F-ANA at 9 10 12 15 | 216 |
| 2'F-ANA at 3 4 5 7 10 11 12 13 | 52.8 |
| 2'F-ANA at 2 5 6 7 10 11 12 13 14 | 47.7 |
| 2'F-ANA at 1 3 4 6 9 10 12 14 | 73.7 |
| 2'F-ANA at 3 5 9 10 11 12 13 14 | 55.9 |
| 2'F-ANA at 2 3 5 7 8 9 12 14 15 | 59.1 |
| 2'F-ANA at 1 2 6 7 9 13 | 94.9 |
| 2'F-ANA at 4 5 7 11 13 14 15 | 45.4 |
| 2'F-ANA at 1 2 3 4 8 9 12 15 | 437 |
| 2'F-ANA at 2 4 6 9 11 12 | 378 |
| 2'F-ANA at 1 3 5 6 7 8 9 10 11 12 15 | 53.7 |
| 2'F-ANA at 2 3 6 8 10 11 12 13 14 15 | 216 |
| 2'F-ANA at 1 6 8 10 11 12 14 15 | 51.7 |
| 2'F-ANA at 1 2 4 9 13 15 | 79.6 |
| 2'F-ANA at 3 4 5 7 9 10 12 13 14 15 | 47.4 |
| 2'F-ANA at 1 4 10 11 12 13 | 55.3 |
| 2'F-ANA at 2 4 5 6 9 11 12 14 | 48.1 |
| 2'F-ANA at 3 4 5 6 7 8 9 12 13 15 | 120 |
| 2'F-ANA at 2 4 6 7 8 9 10 11 15 | 73.3 |
| 2'F-ANA at 1 4 7 10 11 13 14 | 60.6 |

A few entries again (sample 1):
| Substitution | relative binding score [%] |
| --- | --- |
| E147N | 34.1 |
| I162R | 17.8 |
| T173V | 45.1 |
| I105N | -17.7 |
| N85K | 82.4 |
| R98K | 63.3 |
| V121P | 5.01 |
| F66S | 29.5 |
| P146I | -0.619 |
